Measured values gathered from unrelated publications.
Every numbered part comes from another study and shows a few of its results, in no order.
UniProt Q9Y2H1, sequence (whole entry, looked up): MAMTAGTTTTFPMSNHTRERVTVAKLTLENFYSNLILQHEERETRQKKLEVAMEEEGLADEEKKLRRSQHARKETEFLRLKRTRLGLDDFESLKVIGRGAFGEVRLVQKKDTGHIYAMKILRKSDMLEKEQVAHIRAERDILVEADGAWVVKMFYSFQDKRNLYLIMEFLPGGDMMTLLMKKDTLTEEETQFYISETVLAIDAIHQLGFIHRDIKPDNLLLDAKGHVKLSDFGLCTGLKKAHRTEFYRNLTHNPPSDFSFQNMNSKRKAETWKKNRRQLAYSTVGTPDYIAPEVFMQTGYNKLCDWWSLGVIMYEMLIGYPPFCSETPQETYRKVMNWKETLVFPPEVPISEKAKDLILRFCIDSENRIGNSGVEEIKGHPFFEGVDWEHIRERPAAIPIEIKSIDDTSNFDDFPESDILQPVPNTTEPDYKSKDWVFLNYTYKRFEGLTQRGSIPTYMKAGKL
UniProt Q13976, sequence (whole entry, looked up): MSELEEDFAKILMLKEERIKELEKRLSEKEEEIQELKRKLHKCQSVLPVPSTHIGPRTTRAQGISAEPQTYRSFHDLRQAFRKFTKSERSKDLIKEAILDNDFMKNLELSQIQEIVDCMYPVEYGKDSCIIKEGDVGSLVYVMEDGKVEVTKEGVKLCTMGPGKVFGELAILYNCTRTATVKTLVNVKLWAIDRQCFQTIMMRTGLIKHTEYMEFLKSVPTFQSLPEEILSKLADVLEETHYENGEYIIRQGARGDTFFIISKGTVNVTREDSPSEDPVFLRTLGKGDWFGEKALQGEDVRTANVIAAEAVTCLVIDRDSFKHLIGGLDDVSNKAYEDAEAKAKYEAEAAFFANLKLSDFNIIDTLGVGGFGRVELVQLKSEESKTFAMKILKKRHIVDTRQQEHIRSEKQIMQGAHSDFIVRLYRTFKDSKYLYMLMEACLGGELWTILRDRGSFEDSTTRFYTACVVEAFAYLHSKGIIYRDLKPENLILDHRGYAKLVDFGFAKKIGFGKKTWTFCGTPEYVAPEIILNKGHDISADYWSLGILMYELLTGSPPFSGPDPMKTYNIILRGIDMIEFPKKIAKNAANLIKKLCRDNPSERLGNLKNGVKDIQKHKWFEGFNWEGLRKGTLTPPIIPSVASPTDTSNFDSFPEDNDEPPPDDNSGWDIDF
UniProt P54756, sequence (whole entry, looked up): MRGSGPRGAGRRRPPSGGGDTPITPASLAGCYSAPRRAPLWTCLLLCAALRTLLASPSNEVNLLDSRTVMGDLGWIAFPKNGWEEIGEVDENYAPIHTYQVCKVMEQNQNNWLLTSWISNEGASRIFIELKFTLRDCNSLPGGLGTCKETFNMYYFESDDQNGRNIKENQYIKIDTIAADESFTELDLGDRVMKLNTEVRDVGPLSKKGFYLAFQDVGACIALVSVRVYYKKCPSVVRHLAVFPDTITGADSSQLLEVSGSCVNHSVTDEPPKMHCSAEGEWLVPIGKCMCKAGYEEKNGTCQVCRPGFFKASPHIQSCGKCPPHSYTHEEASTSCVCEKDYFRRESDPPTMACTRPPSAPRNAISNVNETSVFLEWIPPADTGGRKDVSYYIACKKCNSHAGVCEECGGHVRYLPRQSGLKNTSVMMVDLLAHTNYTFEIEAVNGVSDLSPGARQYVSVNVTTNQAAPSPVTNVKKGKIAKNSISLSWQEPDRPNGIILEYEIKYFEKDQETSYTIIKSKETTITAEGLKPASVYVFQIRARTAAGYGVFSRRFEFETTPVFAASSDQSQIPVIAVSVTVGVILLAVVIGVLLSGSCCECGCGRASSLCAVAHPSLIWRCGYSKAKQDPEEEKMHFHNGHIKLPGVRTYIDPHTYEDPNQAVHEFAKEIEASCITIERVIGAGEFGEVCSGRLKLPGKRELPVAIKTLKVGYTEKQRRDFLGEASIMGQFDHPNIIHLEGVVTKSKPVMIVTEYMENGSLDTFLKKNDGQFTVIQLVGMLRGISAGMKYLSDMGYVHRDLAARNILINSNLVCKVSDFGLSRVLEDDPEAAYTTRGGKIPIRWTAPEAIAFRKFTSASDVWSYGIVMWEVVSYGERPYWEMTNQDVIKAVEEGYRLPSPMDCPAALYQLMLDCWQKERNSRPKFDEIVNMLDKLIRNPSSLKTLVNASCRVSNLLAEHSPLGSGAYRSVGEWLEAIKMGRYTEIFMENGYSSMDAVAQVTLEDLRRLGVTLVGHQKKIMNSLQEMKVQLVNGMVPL
UniProt P52564, sequence (whole entry, looked up): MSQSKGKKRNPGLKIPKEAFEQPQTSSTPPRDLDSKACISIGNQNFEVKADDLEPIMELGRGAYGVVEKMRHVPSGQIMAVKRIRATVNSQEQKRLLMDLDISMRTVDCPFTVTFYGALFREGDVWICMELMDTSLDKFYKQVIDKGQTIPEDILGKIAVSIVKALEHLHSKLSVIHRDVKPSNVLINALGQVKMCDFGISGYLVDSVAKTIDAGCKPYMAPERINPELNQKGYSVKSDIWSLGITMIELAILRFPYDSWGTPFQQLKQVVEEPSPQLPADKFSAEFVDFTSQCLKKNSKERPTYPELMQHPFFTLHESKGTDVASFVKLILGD

Series 1
Structure (SMILES): C[C@H](c1cccc(C#N)c1)n1cc(Cl)cc(C(N)=O)c1=N
Effect on: cell-free assay
Technique: competition with immobilised ligand
Tested at: 1 µM
target | remaining binding [%]
Homeodomain-interacting protein kinase 4 (HIPK4, Homo sapiens, UniProt Q8NE63) | 100
Tyrosine-protein kinase JAK3, JH1 (JAK3, Homo sapiens, UniProt P52333) | 94
Serine/threonine-protein kinase 38-like (STK38L, Homo sapiens, UniProt Q9Y2H1) | 68
Receptor-type tyrosine-protein kinase FLT3 (FLT3, Homo sapiens, UniProt P36888, D835V/ITD) | 100
Cyclin-dependent kinase 8 (CDK8, Homo sapiens, UniProt P49336) | 100
Vascular endothelial growth factor receptor 1 (FLT1, Homo sapiens, UniProt P17948) | 100
Ribosomal protein S6 kinase alpha-6, C-terminal kinase domain (RPS6KA6, Homo sapiens, UniProt Q9UK32) | 100
Mitogen-activated protein kinase kinase kinase 19 (MAP3K19, Homo sapiens, UniProt Q56UN5) | 76
Serine/threonine-protein kinase Nek10 (NEK10, Homo sapiens, UniProt Q6ZWH5) | 99
Tyrosine-protein kinase ABL1, non-phosphorylated (ABL1, Homo sapiens, UniProt P00519, H396P) | 55
BMP-2-inducible protein kinase (BMP2K, Homo sapiens, UniProt Q9NSY1) | 100
Ephrin type-B receptor 2 (EPHB2, Homo sapiens, UniProt P29323) | 66
Serine/threonine-protein kinase haspin (HASPIN, Homo sapiens, UniProt Q8TF76) | 91
Non-receptor tyrosine-protein kinase TYK2, JH2 (TYK2, Homo sapiens, UniProt P29597) | 75
Tyrosine-protein kinase Mer (MERTK, Homo sapiens, UniProt Q12866) | 96
Ribosomal protein S6 kinase alpha-3, C-terminal kinase domain (RPS6KA3, Homo sapiens, UniProt P51812) | 80
Eukaryotic translation initiation factor 2-alpha kinase 1 (EIF2AK1, Homo sapiens, UniProt Q9BQI3) | 100

Series 2
Structure (SMILES): CC(C)(C)n1nc(Cc2cccc3ccccc23)c2c(N)ncnc21
Effect on: enzyme activity
Action: inhibitor
Tested at: 0.5 µM
Reference: control
target | remaining activity [%]
Ephrin type-A receptor 5 (EPHA5, Homo sapiens, UniProt P54756) | 43.5
MAP kinase-interacting serine/threonine-protein kinase 2 (MKNK2, Homo sapiens, UniProt Q9HBH9) | 93.4
Casein kinase II subunit alpha (CSNK2A1, Homo sapiens, UniProt P68400) | 99.1
Cyclin-dependent kinase 9, with cyclin T1 (CDK9, Homo sapiens, UniProt P50750) | 102
Mitogen-activated protein kinase kinase kinase 10 (MAP3K10, Homo sapiens, UniProt Q02779) | 90.4
Dual specificity mitogen-activated protein kinase kinase 6 (MAP2K6, Homo sapiens, UniProt P52564) | 91.1
Mast/stem cell growth factor receptor Kit (KIT, Homo sapiens, UniProt P10721) | 84.6
Protein kinase C delta type (PRKCD, Homo sapiens, UniProt Q05655) | 98.7
Mitogen-activated protein kinase kinase kinase kinase 2 (MAP4K2, Homo sapiens, UniProt Q12851) | 91.3
Serine/threonine-protein kinase Nek4 (NEK4, Homo sapiens, UniProt P51957) | 102
Leucine-rich repeat serine/threonine-protein kinase 2 (LRRK2, Homo sapiens, UniProt Q5S007) | 90.9
Mitogen-activated protein kinase 12 (MAPK12, Homo sapiens, UniProt P53778) | 86.6
Serine/threonine-protein kinase 38 (STK38, Homo sapiens, UniProt Q15208) | 96.4
Serine/threonine-protein kinase PLK2 (PLK2, Homo sapiens, UniProt Q9NYY3) | 97.6
cGMP-dependent protein kinase 1 (PRKG1, Homo sapiens, UniProt Q13976) | 95.1
Serine/threonine-protein kinase Chk1 (CHEK1, Homo sapiens, UniProt O14757) | 110
Tyrosine-protein kinase Lyn (LYN, Homo sapiens, UniProt P07948) | 52.6
Interleukin-1 receptor-associated kinase 4 (IRAK4, Homo sapiens, UniProt Q9NWZ3) | 90.4
Tyrosine-protein kinase BTK (BTK, Homo sapiens, UniProt Q06187) | 41.8
Serine/threonine-protein kinase WNK2 (WNK2, Homo sapiens, UniProt Q9Y3S1) | 115
Mitogen-activated protein kinase 13 (MAPK13, Homo sapiens, UniProt O15264) | 105
Protein kinase C iota type (PRKCI, Homo sapiens, UniProt P41743) | 98.9
RAC-gamma serine/threonine-protein kinase (AKT3, Homo sapiens, UniProt Q9Y243) | 96.9

Series 3
Target: DNA polymerase theta, helicase domain (POLQ, Homo sapiens, UniProt O75417)
UniProt O75417, sequence (whole entry, looked up): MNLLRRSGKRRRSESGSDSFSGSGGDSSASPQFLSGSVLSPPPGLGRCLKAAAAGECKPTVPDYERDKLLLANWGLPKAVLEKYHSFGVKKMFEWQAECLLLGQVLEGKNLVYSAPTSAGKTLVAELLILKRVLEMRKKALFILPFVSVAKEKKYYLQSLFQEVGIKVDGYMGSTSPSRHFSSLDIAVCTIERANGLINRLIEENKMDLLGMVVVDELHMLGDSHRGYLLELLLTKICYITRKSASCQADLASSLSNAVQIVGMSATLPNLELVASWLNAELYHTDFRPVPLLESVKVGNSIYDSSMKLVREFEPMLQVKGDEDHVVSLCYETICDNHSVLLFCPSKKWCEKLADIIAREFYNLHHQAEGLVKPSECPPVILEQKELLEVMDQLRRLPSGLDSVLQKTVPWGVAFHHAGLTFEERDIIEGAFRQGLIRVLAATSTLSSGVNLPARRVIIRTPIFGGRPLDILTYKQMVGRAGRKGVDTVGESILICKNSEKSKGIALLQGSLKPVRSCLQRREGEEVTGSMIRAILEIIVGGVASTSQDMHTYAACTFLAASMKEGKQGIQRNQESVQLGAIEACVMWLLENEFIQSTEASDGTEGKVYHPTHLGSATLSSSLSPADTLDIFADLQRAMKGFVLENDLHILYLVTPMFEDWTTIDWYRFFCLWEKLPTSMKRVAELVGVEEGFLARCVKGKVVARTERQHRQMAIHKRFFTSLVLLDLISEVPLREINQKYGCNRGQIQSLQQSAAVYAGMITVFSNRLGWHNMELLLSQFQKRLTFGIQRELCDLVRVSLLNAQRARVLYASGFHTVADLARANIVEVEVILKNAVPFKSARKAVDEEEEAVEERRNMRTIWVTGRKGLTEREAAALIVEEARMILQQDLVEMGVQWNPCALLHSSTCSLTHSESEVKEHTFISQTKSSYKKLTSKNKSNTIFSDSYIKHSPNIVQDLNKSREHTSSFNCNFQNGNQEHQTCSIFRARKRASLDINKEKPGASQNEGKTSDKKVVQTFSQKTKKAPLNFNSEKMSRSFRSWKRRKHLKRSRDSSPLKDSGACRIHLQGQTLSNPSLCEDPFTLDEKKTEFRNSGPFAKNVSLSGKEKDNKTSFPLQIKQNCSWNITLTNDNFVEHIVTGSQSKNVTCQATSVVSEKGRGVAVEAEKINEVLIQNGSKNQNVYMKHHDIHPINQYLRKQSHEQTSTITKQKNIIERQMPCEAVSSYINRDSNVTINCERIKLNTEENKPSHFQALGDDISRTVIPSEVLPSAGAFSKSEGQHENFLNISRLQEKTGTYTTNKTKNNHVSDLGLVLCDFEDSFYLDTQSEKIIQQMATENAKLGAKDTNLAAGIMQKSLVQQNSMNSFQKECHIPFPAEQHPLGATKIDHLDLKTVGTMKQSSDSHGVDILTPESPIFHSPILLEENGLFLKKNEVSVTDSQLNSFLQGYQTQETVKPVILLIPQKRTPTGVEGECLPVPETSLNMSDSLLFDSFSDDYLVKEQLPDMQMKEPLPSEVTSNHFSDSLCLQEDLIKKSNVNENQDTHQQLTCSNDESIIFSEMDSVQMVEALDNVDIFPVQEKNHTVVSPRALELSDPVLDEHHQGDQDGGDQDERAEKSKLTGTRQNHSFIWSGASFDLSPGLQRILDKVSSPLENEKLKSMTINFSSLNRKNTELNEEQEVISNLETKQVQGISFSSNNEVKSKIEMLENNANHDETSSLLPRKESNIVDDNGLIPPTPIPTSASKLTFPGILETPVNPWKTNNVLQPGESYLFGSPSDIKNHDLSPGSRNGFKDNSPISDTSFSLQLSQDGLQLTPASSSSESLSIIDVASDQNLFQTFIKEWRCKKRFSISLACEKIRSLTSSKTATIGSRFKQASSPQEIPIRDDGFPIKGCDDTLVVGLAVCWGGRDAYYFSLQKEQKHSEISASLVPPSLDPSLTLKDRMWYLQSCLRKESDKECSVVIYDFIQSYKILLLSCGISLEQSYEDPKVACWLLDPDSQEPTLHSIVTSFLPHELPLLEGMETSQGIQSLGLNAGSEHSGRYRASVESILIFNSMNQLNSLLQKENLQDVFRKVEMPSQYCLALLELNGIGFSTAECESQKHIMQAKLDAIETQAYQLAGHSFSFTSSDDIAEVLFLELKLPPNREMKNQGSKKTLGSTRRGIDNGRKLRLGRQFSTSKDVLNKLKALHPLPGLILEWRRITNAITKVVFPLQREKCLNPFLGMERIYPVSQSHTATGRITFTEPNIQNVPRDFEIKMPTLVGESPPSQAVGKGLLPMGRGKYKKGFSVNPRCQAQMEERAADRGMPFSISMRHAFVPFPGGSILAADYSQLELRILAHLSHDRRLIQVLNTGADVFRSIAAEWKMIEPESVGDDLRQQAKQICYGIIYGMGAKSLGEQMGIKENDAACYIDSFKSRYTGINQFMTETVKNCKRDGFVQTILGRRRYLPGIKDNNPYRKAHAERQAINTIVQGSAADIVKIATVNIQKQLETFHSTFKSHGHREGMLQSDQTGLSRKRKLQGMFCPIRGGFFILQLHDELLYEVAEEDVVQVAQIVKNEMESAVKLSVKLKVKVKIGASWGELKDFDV
Effect on: enzyme activity
Tested at: concentration not given
Notes: without ssDNA
Structure (SMILES) | remaining activity [%]
Cc1noc(C)c1S(=O)(=O)Nc1ccc(C(=O)Nc2ccc(Br)cc2)cc1 | 78
CCc1ccc(/C=C2/SC(=S)NC2=O)cc1 | 45
CCCCCCCCCCCCCCCC(=O)OC[C@H](O)[C@H]1OC(=O)C(O)=C1O | 43.1
Cc1c(Cl)cccc1NC(=O)CSc1ncc(S(=O)(=O)c2ccc(C(C)C)cc2)c(=O)[nH]1 | 91.3
CC(=O)Oc1cccc2c1C(=O)c1c(OC(C)=O)cc(C(=O)O)cc1C2=O | 58.9
COc1cccc(C2C3=C(NN/C3=C3/C=CC=CC3=O)C(=O)N2CCc2ccc(OC)c(OC)c2)c1 (centres unmarked) | 73.9
Cc1ccc(C(=O)Nc2ccc(S(=O)(=O)[O-])c3cc(S(=O)(=O)[O-])cc(S(=O)(=O)[O-])c23)cc1NC(=O)c1cccc(NC(=O)Nc2cccc(C(=O)Nc3cc(C(=O)Nc4ccc(S(=O)(=O)[O-])c5cc(S(=O)(=O)[O-])cc(S(=O)(=O)[O-])c45)ccc3C)c2)c1.[Na+].[Na+].[Na+].[Na+].[Na+].[Na+] | 14.5
O=c1[nH]c2cc(Cl)ccc2c(O)c1-c1cccc(Oc2ccccc2)c1 | 66.1
O=C1c2c(O)ccc(O)c2C(=O)c2c(NCCNCCO)ccc(NCCNCCO)c21 | 93.8
CC[N+](C)(CC)CCC[n+]1c(-c2ccccc2)c2cc(N)ccc2c2ccc(N)cc21 | 110
N#CSc1cc(SC#N)c(N)nc1N | 91.5

Series 4
SMILES: CC(C)n1cnc(-c2ccc(F)cc2)c1-c1ncc(C(=O)Nc2ccc(N3CCN(C)CC3)cc2)[nH]1
technique | item | species | route | dose | notes | patients with TEAE
phase 2a trial | – | patients with idiopathic pulmonary fibrosis | – | 30 mg once daily | endocrine disorders SOC, grade 4 | 0%
phase 2a trial | – | patients with idiopathic pulmonary fibrosis | – | dose not given | endocrine disorders SOC, grade 5, all arms | 0%
phase 2a trial | – | patients with idiopathic pulmonary fibrosis | – | 30 mg once daily | free thyroxine decreased, grade 5 | 0%
– | glutamate dehydrogenase increased | idiopathic pulmonary fibrosis patients | – | 30 mg once daily | – | 0%
phase 2a trial | – | idiopathic pulmonary fibrosis patients | oral | 60 mg once daily | disc protrusion, grade 4 | 0%
phase 2a trial | – | patients with idiopathic pulmonary fibrosis | – | 60 mg once daily | free thyroxine decreased, grade 5 | 0%
phase 2a trial | – | patients with idiopathic pulmonary fibrosis | – | 30 mg once daily | free thyroxine decreased, grade 3 | 0%
phase 2a trial | – | patients with idiopathic pulmonary fibrosis | – | dose not given | allergic conjunctivitis, grade 1, all arms | 0%
phase 2a trial | – | idiopathic pulmonary fibrosis patients | oral | dose not given | GLDH increased, grade 4, all arms | 0%
phase 2a trial | – | idiopathic pulmonary fibrosis patients | oral | dose not given | ESR increased, grade 2, all arms | 0%
phase 2a trial | – | idiopathic pulmonary fibrosis patients | oral | 60 mg once daily | GLDH increased, grade 4 | 0%

A few entries again (series 2):
target | remaining activity [%]
Serine/threonine-protein kinase Nek4 (NEK4, Homo sapiens, UniProt P51957) | 102
Dual specificity mitogen-activated protein kinase kinase 6 (MAP2K6, Homo sapiens, UniProt P52564) | 91.1
Mitogen-activated protein kinase 13 (MAPK13, Homo sapiens, UniProt O15264) | 105
Serine/threonine-protein kinase Chk1 (CHEK1, Homo sapiens, UniProt O14757) | 110
Protein kinase C iota type (PRKCI, Homo sapiens, UniProt P41743) | 98.9
Serine/threonine-protein kinase WNK2 (WNK2, Homo sapiens, UniProt Q9Y3S1) | 115
Interleukin-1 receptor-associated kinase 4 (IRAK4, Homo sapiens, UniProt Q9NWZ3) | 90.4
